Assay results gathered from unrelated publications.
Compare with care: the assays were run in different laboratories. Numbers after ± are the reported error.
Target: ATP-dependent translocase ABCB1 (ABCB1, Homo sapiens, UniProt P08183)
Sequence of UniProt P08183 (whole entry, looked up): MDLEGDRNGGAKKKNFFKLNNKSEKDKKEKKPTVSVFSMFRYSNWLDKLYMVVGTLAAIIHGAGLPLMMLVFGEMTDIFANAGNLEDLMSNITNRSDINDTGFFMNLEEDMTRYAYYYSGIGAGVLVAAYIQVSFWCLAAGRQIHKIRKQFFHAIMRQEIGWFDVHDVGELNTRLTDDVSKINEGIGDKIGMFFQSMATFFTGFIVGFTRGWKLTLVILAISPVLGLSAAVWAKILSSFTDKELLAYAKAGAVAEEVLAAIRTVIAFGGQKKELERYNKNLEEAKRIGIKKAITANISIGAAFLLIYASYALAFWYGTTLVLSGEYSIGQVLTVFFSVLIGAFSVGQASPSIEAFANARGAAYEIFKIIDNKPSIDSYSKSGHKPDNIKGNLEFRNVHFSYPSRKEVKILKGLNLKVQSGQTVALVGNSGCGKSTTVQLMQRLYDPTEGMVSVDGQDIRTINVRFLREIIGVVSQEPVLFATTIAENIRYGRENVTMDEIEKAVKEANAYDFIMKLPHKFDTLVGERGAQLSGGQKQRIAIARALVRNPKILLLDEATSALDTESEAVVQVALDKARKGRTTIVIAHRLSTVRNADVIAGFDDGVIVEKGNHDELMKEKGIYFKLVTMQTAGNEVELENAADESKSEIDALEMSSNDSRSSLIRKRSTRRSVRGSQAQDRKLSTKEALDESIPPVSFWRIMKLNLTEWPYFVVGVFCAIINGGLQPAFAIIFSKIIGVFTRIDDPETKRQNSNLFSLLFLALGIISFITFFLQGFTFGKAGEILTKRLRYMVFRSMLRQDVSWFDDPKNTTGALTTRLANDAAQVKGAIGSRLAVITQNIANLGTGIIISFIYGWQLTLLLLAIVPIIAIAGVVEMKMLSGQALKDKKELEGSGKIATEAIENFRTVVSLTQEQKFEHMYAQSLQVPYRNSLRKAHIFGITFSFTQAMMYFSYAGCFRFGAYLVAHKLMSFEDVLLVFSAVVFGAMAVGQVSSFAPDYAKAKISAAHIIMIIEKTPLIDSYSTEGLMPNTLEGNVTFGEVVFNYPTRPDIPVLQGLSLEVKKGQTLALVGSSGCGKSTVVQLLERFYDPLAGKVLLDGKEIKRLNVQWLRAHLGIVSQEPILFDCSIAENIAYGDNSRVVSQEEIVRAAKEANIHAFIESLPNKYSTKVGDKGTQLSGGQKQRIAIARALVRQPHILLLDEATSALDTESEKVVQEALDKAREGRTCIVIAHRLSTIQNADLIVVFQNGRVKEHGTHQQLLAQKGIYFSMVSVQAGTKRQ

The Papp of `CN1CCN(c2ccc(C(=O)Nc3n[nH]c4ccc(Cc5cc(F)cc(F)c5)cc34)c(NC3CCOCC3)c2)CC1` is reported as 1.52 ± 0.19 ×10⁻⁶ cm/s (LLC-PK1 cells expressing human ABCB1; 3.5 h, together with: zosuquidar 1 µM; apical to basolateral).
For `CC[C@]1(O)C[C@@H]2CN(CCc3c([nH]c4ccccc34)[C@@](C(=O)OC)(c3cc4c(cc3OC)N(C)[C@H]3[C@@](O)(C(=O)OC)[C@H](OC(C)=O)[C@]5(CC)C=CCN6CC[C@]43[C@@H]65)C2)C1`, the intracellular accumulation was 20.1 ± 2.6% (substrate; MDCK-II overexpressing MDR1; 9.3 nM, 60 min, 37 °C, together with: rucaparib 2 M; reference: vector control cells).
With `CCCN(CCc1ccccc1)C(=O)[C@@H]1OC(C(=O)O)=C[C@H](O)[C@H]1NC(C)=O` the IC50 was 3.64 ± 1.47 µM (JC-1 efflux, inhibitor; Jurkat-DNR).
The efflux ratio of `CC(CN(C)C)CN1c2ccccc2CCc2ccccc21` (centres unmarked) is reported as less than 2 (transport; MDCK-MDR1; 10 µM, 90 min; reference: B-A over A-B).
`COc1ccccc1-c1cc2nc(-c3ccccc3)cc(N3CCN(C(=O)c4ccccc4)CC3)n2n1` has an IC50 of 2.31 ± 0.79 µM (JC-1 efflux, inhibitor; Jurkat-DNR).
`CC(C)NCC(O)COc1cccc2ccccc12` (centres unmarked) gave an efflux ratio of less than 2 (transport; MDCK-MDR1; 10 µM, 90 min; reference: B-A over A-B).
`CC(C)[C@H](N)c1nc(C(=O)N[C@H](c2nc(C(=O)O)cs2)C(C)C)cs1` has an inhibition of less than 5% (calcein-AM efflux, flow cytometry; HeLa transduced with BacMam ABCB1; 20 µM, 10 min, 5% FBS, together with: calcein-AM 0.5 µM; reference: 1 µM tariquidar).
For `Cc1ccc(Nc2nccc(N(C)c3ccc4c(C)n(C)nc4c3)n2)cc1S(N)(=O)=O`, the efflux ratio was 1.2 (bidirectional transport; MDCK-MDR1; 5 µM, 240 min, together with: canertinib 5 µM; reference: B-A over A-B).
With `CCOC(=O)c1csc([C@@H](NC(=O)OC(C)(C)C)C(C)C)n1` the inhibition was 10% (Bodipy-FL-prazosin efflux, flow cytometry; HeLa transduced with BacMam ABCB1; 20 µM, 45 min, 5% FBS; reference: 1 µM tariquidar).
Under rhodamine efflux, `COc1cc2c(cc1OC)CN(CCc1ccc(NC(=O)c3cc(OC)c(OC)cc3NC(=O)c3cnc4ccccc4c3)cc1)CC2` is recorded as “decreased” (inhibitor; patient CD56+ mononuclear cells, human patients; intravenous, 150 mg, 48 h; reference: pre-dose).
With `CC(C)[C@H](N)c1nc(C(=O)O)cs1` the inhibition was less than 5% (calcein-AM efflux, flow cytometry; HeLa transduced with BacMam ABCB1; 20 µM, 10 min, 5% FBS, together with: calcein-AM 0.5 µM; reference: 1 µM tariquidar).
The IC50 of `COc1cccc(-c2cc(N3CCN(C(=O)c4ccoc4)CC3)n3nc(-c4ccccc4)cc3n2)c1` is reported as 16.4 µM (JC-1 efflux, inhibitor; Jurkat-DNR).
With `CC(C)[C@H](NC(=O)OC(C)(C)C)c1nc(C(=O)N[C@H](c2nc(C(=O)O)cs2)C(C)C)cs1` the inhibition was 12% (Bodipy-FL-prazosin efflux, flow cytometry; HeLa transduced with BacMam ABCB1; 20 µM, 45 min, 5% FBS; reference: 1 µM tariquidar).
`O=C(c1ccoc1)N1CCN(c2cc(-c3ccncc3)nc3cc(-c4cccc(Cl)c4)nn23)CC1` has an IC50 of 3.68 ± 0.35 µM (JC-1 efflux, inhibitor; Jurkat-DNR).

Excerpt of the above:
With `CC(C)[C@H](N)c1nc(C(=O)O)cs1` the inhibition was less than 5% (calcein-AM efflux, flow cytometry; HeLa transduced with BacMam ABCB1; 20 µM, 10 min, 5% FBS, together with: calcein-AM 0.5 µM; reference: 1 µM tariquidar).
The IC50 of `COc1cccc(-c2cc(N3CCN(C(=O)c4ccoc4)CC3)n3nc(-c4ccccc4)cc3n2)c1` is reported as 16.4 µM (JC-1 efflux, inhibitor; Jurkat-DNR).
